Measured values of several laboratories.
Compare with care: the assays were run in different laboratories. Numbers after ± are the reported error.
UniProt P11716, sequence (whole entry, looked up): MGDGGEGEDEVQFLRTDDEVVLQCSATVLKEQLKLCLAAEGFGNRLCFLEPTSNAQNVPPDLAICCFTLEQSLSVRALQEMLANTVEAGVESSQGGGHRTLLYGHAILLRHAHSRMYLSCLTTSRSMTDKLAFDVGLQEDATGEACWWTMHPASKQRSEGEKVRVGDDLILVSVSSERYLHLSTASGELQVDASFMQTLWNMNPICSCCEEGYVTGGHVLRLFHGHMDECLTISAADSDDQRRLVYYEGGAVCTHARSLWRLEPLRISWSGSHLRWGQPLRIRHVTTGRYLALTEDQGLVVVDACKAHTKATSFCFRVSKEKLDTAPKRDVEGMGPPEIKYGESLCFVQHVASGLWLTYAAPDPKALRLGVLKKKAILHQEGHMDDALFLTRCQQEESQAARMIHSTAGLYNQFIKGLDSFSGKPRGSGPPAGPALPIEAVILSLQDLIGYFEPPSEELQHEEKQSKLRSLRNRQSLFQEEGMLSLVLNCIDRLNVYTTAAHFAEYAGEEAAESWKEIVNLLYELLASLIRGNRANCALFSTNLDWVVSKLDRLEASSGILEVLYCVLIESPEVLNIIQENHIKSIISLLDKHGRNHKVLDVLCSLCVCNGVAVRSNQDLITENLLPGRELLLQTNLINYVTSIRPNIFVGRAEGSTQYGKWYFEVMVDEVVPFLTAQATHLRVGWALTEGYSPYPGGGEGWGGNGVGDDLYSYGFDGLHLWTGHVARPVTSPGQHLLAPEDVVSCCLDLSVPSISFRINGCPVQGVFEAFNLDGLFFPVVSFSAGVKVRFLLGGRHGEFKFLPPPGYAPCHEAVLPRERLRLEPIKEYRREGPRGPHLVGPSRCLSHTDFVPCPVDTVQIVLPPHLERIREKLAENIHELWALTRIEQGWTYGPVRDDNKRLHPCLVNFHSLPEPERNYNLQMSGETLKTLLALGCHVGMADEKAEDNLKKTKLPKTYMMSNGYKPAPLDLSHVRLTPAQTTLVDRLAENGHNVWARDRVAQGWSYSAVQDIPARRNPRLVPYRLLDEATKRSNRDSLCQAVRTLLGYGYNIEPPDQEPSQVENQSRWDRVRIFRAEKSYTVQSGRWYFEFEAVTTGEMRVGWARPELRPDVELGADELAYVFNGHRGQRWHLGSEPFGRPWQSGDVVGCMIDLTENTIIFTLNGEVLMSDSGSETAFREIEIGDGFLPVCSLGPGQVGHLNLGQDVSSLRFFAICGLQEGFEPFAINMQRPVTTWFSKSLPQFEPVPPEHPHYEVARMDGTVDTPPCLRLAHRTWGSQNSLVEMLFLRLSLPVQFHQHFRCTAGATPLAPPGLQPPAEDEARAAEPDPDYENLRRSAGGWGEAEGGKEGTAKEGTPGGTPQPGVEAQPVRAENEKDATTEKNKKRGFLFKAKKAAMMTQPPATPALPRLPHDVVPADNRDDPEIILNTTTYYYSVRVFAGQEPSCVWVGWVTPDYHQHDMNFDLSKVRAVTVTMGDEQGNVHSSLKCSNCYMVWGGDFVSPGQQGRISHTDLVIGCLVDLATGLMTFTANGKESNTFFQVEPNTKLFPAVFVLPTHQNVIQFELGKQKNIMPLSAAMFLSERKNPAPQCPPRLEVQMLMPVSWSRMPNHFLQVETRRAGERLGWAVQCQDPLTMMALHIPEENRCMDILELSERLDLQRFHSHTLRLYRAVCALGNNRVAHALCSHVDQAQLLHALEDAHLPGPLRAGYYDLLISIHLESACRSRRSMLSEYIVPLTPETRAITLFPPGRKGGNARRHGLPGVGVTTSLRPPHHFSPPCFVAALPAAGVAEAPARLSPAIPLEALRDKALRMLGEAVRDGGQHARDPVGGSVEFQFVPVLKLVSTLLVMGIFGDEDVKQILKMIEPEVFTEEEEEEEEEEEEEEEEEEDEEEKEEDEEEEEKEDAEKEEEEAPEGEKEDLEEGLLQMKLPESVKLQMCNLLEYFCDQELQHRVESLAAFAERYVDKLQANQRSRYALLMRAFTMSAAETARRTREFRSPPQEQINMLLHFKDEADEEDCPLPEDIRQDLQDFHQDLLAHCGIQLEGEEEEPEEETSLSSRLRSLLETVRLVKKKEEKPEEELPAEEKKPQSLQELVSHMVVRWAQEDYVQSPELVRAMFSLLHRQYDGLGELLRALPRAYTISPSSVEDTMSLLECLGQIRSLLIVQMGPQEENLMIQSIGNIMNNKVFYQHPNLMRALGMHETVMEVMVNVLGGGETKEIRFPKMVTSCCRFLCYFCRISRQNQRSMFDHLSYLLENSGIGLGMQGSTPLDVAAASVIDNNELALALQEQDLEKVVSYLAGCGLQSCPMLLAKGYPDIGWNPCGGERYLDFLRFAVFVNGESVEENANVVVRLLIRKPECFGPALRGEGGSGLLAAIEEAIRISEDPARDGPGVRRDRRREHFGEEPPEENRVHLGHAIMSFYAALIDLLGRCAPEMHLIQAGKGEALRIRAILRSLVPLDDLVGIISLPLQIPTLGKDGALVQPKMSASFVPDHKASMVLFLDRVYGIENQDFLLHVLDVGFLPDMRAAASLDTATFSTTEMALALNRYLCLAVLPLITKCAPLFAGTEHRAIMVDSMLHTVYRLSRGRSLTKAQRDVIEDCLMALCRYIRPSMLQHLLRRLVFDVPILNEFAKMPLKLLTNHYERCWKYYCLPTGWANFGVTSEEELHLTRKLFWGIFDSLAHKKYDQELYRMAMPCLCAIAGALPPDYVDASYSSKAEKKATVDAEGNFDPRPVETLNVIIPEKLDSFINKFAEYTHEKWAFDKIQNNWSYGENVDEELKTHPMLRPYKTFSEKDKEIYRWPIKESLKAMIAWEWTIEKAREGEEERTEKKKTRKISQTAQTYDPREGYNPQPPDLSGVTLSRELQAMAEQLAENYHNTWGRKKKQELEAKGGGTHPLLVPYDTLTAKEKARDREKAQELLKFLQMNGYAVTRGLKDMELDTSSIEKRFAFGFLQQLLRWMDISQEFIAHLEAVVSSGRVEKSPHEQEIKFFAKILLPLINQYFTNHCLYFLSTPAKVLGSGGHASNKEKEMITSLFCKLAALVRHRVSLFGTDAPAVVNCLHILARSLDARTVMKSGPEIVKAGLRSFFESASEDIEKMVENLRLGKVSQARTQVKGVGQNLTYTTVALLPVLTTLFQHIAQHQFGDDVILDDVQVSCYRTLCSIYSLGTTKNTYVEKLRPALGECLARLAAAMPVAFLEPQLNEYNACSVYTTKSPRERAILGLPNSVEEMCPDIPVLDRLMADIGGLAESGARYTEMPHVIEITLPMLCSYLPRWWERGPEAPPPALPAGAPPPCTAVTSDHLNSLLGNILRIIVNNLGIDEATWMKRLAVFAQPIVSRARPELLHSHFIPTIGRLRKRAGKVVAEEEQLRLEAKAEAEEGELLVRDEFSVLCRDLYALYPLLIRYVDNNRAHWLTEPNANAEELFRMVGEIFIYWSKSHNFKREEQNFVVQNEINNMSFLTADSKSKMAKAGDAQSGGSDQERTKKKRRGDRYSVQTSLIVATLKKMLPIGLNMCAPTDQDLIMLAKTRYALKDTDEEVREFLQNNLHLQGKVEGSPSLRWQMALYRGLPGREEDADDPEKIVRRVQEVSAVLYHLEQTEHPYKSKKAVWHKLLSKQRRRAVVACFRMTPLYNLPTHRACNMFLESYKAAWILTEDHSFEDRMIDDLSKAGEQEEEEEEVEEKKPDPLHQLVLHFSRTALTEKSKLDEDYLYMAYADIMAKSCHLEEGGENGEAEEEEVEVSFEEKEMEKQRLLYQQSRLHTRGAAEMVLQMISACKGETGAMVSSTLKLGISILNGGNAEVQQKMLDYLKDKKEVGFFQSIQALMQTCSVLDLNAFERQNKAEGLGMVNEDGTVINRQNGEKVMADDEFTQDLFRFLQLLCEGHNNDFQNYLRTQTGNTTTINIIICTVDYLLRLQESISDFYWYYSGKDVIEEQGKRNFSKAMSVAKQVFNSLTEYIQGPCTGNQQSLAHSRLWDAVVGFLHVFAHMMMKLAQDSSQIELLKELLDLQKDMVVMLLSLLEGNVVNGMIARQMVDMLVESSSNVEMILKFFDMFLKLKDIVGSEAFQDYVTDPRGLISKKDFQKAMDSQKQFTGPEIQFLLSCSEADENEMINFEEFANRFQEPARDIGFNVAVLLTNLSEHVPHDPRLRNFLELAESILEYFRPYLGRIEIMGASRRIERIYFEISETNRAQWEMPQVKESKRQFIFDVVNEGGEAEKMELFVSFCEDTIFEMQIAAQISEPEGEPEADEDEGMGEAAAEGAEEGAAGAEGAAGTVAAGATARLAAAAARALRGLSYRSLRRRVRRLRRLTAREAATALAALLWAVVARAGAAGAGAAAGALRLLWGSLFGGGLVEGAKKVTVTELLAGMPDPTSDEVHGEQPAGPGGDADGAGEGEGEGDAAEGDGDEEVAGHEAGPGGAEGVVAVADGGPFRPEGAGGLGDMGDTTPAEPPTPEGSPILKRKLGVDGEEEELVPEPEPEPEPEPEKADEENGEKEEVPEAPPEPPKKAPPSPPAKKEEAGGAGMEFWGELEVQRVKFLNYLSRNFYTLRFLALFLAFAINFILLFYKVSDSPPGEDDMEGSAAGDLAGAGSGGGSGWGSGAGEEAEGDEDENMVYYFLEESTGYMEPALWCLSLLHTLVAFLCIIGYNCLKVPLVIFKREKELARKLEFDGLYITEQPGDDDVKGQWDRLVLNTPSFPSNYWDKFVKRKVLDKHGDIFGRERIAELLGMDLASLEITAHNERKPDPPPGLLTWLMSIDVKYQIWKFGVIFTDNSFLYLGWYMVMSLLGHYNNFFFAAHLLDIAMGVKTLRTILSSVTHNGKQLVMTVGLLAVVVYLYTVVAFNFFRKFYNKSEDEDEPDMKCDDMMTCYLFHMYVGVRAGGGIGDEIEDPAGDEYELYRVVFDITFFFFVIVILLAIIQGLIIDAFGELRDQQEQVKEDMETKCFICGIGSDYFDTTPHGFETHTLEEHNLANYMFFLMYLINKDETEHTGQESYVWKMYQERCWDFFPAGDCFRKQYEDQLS

Structure (SMILES) | target | assay | test system | conditions | how to read | measurement | result
NS(=O)(=O)c1ccc(NC(=O)c2ccccc2SSc2ccccc2C(=O)Nc2ccc(S(N)(=O)=O)cc2)cc1 | Gag-Pol polyprotein, integrase residues 50-288 (gag-pol, Human immunodeficiency virus type 1 group M subtype B, UniProt P04585, C1427S) | DNA binding, fluorescence anisotropy | integrase ΔN | compound:IN ratio 3:1, added: 10 mM Mg2+, U5 DNA |  | Hill coefficient | 1.41
C[Si]1(C[C@H](CN)CC(=O)O)CCCC1 | Transient receptor potential cation channel subfamily V member 1 (TRPV1, Homo sapiens, UniProt Q8NER1) | ligand displacement, radioligand |  | 70 µM |  | inhibition | -5%
CC(C)C[C@@H]1NC(=O)[C@@H](NC(=O)[C@H](CC(=O)O)NC(=O)[C@H](C)N)CSSC[C@@H]2NC(=O)[C@@H]3CSSC[C@@H](C(=O)N[C@@H](CCCNC(=N)N)C(=O)O)NC(=O)[C@H](CCCNC(=N)N)NC(=O)[C@H](CCC(N)=O)NC(=O)[C@H](CCC(=O)O)NC(=O)[C@@H]4CCCN4C(=O)[C@H](CC(N)=O)NC(=O)[C@H]([C@@H](C)O)NC(=O)CNC(=O)[C@H](CCCNC(=N)N)NC(=O)[C@H](CCCNC(=N)N)NC(=O)[C@H](CO)NC(=O)[C@H](CSSC[C@H](NC(=O)[C@H](CC(C)C)NC(=O)[C@H](CCCCN)NC(=O)[C@H](CC(C)C)NC(=O)[C@H](Cc4c[nH]cn4)NC(=O)[C@H](C)NC1=O)C(=O)N[C@@H](CCCCN)C(=O)N[C@@H](CCCCN)C(=O)N[C@@H](CC(N)=O)C(=O)N[C@@H](CCCCN)C(=O)N[C@@H](CC(=O)O)C(=O)N3)NC(=O)[C@H](CCCCN)NC(=O)[C@H](CCCCN)NC(=O)[C@H](CO)NC2=O | Ryanodine receptor 1 (RYR1, Oryctolagus cuniculus, UniProt P11716) | activator |  | 100 nM, 120 min, pH 7.2, 36 °C, pCa 8 | reference: control at pCa 5 | specific [3H]ryanodine binding | 23.4 ± 5.6%
CC[C@H](C)[C@H](NC(=O)[C@H](CCCN)NC(=O)[C@H](CC(=O)O)NC(=O)[C@H](CC(C)C)NC(=O)C(C)(CC(C)C)NC(=O)[C@@H](NC(=O)[C@H](CO)NC(=O)[C@H](Cc1ccc(O)cc1)NC(=O)[C@H](CC(=O)O)NC(=O)[C@H](CO)NC(=O)[C@@H](NC(=O)[C@H](Cc1ccccc1)NC(=O)[C@@H](NC(=O)CNC(=O)[C@H](CCC(=O)O)NC(=O)C(C)(C)NC(=O)[C@@H](N)Cc1ccc(O)cc1)[C@@H](C)O)[C@@H](C)CC)[C@@H](C)CC)C(=O)N[C@@H](Cc1c[nH]cn1)C(=O)N[C@@H](CCC(N)=O)C(=O)NC(C)(C)C(=O)N[C@@H](CC(=O)O)C(=O)N[C@@H](Cc1ccccc1)C(=O)N[C@H](C(=O)N[C@@H](CCC(=O)O)C(=O)N[C@@H](Cc1ccc(O)cc1)C(=O)N[C@@H](CCCCNC(=O)COCCOCCNC(=O)COCCOCCNC(=O)CC[C@H](NC(=O)CCCCCCCCCCCCCCCCCCC(=O)O)C(=O)O)C(=O)N[C@@H](CC(C)C)C(=O)N[C@@H](CCC(=O)O)C(=O)NCC(=O)NCC(=O)N1CCC[C@H]1C(=O)N[C@@H](CO)C(=O)N[C@@H](CO)C(=O)NCC(=O)N[C@@H](C)C(=O)N1CCC[C@H]1C(=O)N1CCC[C@H]1C(=O)N1CCC[C@H]1C(=O)N[C@@H](CO)C(N)=O)C(C)C (some centres unmarked) | Gastric inhibitory polypeptide receptor (Mus musculus, UniProt Q0P543) | cAMP accumulation, agonist | HEK293 |  | reference: human GIPR over mouse GIPR | potency ratio | ~600 fold
CSCC[C@H](NC(=O)[C@H](CCN)NC(=O)[C@@H](NC(=O)[C@H](Cc1c[nH]c2ccccc12)NC(=O)[C@H](CCCNC(=N)N)NC(=O)[C@@H](N)CCNc1ccc([N+](=O)[O-])cc1[N+](=O)[O-])[C@@H](C)O)C(=O)N[C@@H](CC(C)C)C(N)=O | Thermolysin (npr, Bacillus thermoproteolyticus, UniProt P00800) | enzyme activity |  | concentration not given |  | inhibition | 0%
CC[C@H](C)[C@H](N)C(=O)N[C@@H](CC(N)=O)C(=O)N[C@@H](CC(N)=O)C(=O)N[C@H](C(=O)N1C[C@@H](n2cc([C]34[CH]5[CH]6[CH]7[CH]3[Fe]6754389%10[CH]4[CH]3[CH]8[CH]9[CH]4%10)nn2)C[C@H]1C(=O)N[C@@H](Cc1cn(C)c2ccccc12)C(N)=O)[C@@H](C)CC (some centres unmarked) | Envelope glycoprotein gp160, gp120 (env, Human immunodeficiency virus type 1 group M subtype B, UniProt P35961, T253A) | ITC |  | concentration not given, gp120 T257A mutant |  | binding stoichiometry | 1.15
CCCCCCCCCCCCCCCC(=O)N[C@@H](CCC(=O)NCCCC[C@H](NC(=O)[C@H](CO)NC(=O)[C@@H]1CCCN1C(=O)[C@@H]1CCCN1C(=O)[C@@H]1CCCN1C(=O)[C@H](C)NC(=O)CNC(=O)[C@H](CO)NC(=O)[C@H](CO)NC(=O)[C@@H]1CCCN1C(=O)CNC(=O)CNC(=O)[C@H](C)NC(=O)[C@H](CC(C)C)NC(=O)[C@H](CC(C)C)NC(=O)[C@H](Cc1c[nH]c2ccccc12)NC(=O)[C@H](CC(N)=O)NC(=O)[C@@H](NC(=O)[C@H](Cc1ccccc1)NC(=O)[C@H](CCC(=O)O)NC(=O)C(C)(C)NC(=O)[C@H](C)NC(=O)[C@H](C)NC(=O)[C@H](CCC(N)=O)NC(=O)[C@H](CCCCN)NC(=O)[C@H](CC(=O)O)NC(=O)[C@H](CC(C)C)NC(=O)[C@H](Cc1ccc(O)cc1)NC(=O)[C@@H](NC(=O)[C@H](CO)NC(=O)[C@H](Cc1ccc(O)cc1)NC(=O)[C@H](CC(=O)O)NC(=O)[C@H](CO)NC(=O)[C@@H](NC(=O)[C@H](Cc1ccccc1)NC(=O)[C@@H](NC(=O)CNC(=O)[C@H](CCC(=O)O)NC(=O)CSCC(=O)NCCN1C(=O)CSC1=O)[C@@H](C)O)[C@@H](C)O)[C@@H](C)CC)C(C)C)C(N)=O)C(=O)O | Gastric inhibitory polypeptide receptor (GIPR, Homo sapiens, UniProt P48546) | β-arrestin recruitment, agonist |  |  |  | Emax | < 5%
CSCC[C@@H]1NC(=O)[C@H](Cc2ccccc2)NC(=O)CNC(=O)[C@H](NC(=O)[C@@H](N)Cc2ccc(O)cc2)CSSC[C@H](C(=O)N[C@@H](Cc2c[nH]c3ccccc23)C(=O)NCc2cc(C(F)(F)F)cc(C(F)(F)F)c2)NC(=O)[C@@H]2CCCN2C1=O | Delta-type opioid receptor (OPRD1, Homo sapiens, UniProt P41143) | GTPγS binding, agonist, radiometric |  | cell membranes |  | Emax | 110%
CC(C)C[C@@H]1NC(=O)[C@@H]2CCCN2C(=O)[C@H](CC(=O)O)NC(=O)CNC(=O)[C@H](CC(N)=O)NC(=O)[C@H](CCCCN)NC(=O)[C@H]([C@@H](C)O)NC(=O)[C@@H](N)CSCc2cc3cc(c2)CSC[C@H](NC(=O)[C@@H]2CCCN2C1=O)C(=O)NCC(=O)N[C@@H](CCC(=O)O)C(=O)N[C@@H]([C@@H](C)O)C(=O)N[C@H](C(N)=O)CSC3 | Cannabinoid receptor 2 (CNR2, Homo sapiens, UniProt P34972) | β-arrestin-2 recruitment | HEK293 | concentration not given, added: 2-AG 1 µM |  | decrease in efficacy | ~30%
CC[C@H](C)[C@H](NC(=O)[C@@H]1CCCN1C(=O)[C@H](CCC(=O)O)NC(=O)[C@H](CCC(N)=O)NC(=O)[C@H](CCCCN)NC(=O)[C@H](CCC(N)=O)NC(=O)[C@@H]1CCCN1C(=O)[C@@H]1CCCN1C(=O)[C@@H](NC(=O)[C@@H](NC(=O)[C@@H](NC(=O)[C@H](CCC(=O)O)NC(=O)[C@@H](NC(=O)CNC(=O)[C@H](CO)NC(=O)[C@H](CCCNC(=N)N)NC(=O)[C@H](Cc1ccccc1)NC(=O)[C@H](CO)NC(=O)[C@H](CCC(=O)O)NC(=O)[C@H](CCC(=O)O)NC(=O)[C@@H]1CCCN1C(=O)[C@@H]1CCCN1C(=O)[C@H](C)NC(=O)[C@@H](NC(=O)[C@@H]1CCCN1C(=O)[C@H](CCC(=O)O)NC(=O)[C@@H]1CCCN1C(=O)[C@H](CCCNC(=N)N)NC(=O)[C@@H](N)CO)[C@@H](C)O)C(C)C)[C@@H](C)O)[C@@H](C)O)[C@@H](C)O)C(=O)N[C@@H](CC(=O)O)C(=O)N[C@@H](CCCCN)C(=O)N[C@@H](CCC(=O)O)C(=O)N[C@@H](CC(C)C)C(=O)N[C@@H](Cc1ccc(O)cc1)C(=O)N1CCC[C@H]1C(=O)N[C@@H](CC(C)C)C(=O)N[C@H](C(=O)N[C@@H](CO)C(=O)N[C@@H](CC(C)C)C(=O)N[C@@H](CCCNC(=N)N)C(=O)N[C@@H](CO)C(=O)N[C@@H](CC(C)C)C(=O)N[C@@H](Cc1ccccc1)C(=O)NCC(=O)N[C@@H](CC(N)=O)C(=O)N[C@@H](CC(=O)O)C(=O)N1CCC[C@H]1C(=O)N[C@@H](CO)C(=O)N[C@@H](CO)C(=O)N[C@@H](CCC(N)=O)C(=O)O)[C@@H](C)O | Insulin-degrading enzyme (IDE, Homo sapiens, UniProt P14735, E111Q) | NMR relaxation dispersion |  | 500 µM, 2 °C |  | bound state lifetime | ~140 µs
C[C@H](NC(=O)CNC(=O)[C@@H](NC(=O)[C@H](Cc1ccccc1)NC(=O)CNC(=O)CNC[C@@H](N)Cc1ccccc1)[C@@H](C)O)C(=O)N[C@@H](CCCNC(=N)N)C(=O)N[C@@H](CCCCN)C(=O)N[C@@H](CO)C(=O)N[C@@H](C)C(=O)N[C@@H](CCCNC(=N)N)C(=O)N[C@@H](CCCCN)C(N)=O | Nociceptin receptor, with G protein (OPRL1, Homo sapiens, UniProt P41146) | agonist |  |  |  | Emax | 68 ± 2%

Some of these lines once more:
Structure (SMILES) | target | assay | test system | conditions | how to read | measurement | result
CC[C@H](C)[C@H](NC(=O)[C@H](CCCN)NC(=O)[C@H](CC(=O)O)NC(=O)[C@H](CC(C)C)NC(=O)C(C)(CC(C)C)NC(=O)[C@@H](NC(=O)[C@H](CO)NC(=O)[C@H](Cc1ccc(O)cc1)NC(=O)[C@H](CC(=O)O)NC(=O)[C@H](CO)NC(=O)[C@@H](NC(=O)[C@H](Cc1ccccc1)NC(=O)[C@@H](NC(=O)CNC(=O)[C@H](CCC(=O)O)NC(=O)C(C)(C)NC(=O)[C@@H](N)Cc1ccc(O)cc1)[C@@H](C)O)[C@@H](C)CC)[C@@H](C)CC)C(=O)N[C@@H](Cc1c[nH]cn1)C(=O)N[C@@H](CCC(N)=O)C(=O)NC(C)(C)C(=O)N[C@@H](CC(=O)O)C(=O)N[C@@H](Cc1ccccc1)C(=O)N[C@H](C(=O)N[C@@H](CCC(=O)O)C(=O)N[C@@H](Cc1ccc(O)cc1)C(=O)N[C@@H](CCCCNC(=O)COCCOCCNC(=O)COCCOCCNC(=O)CC[C@H](NC(=O)CCCCCCCCCCCCCCCCCCC(=O)O)C(=O)O)C(=O)N[C@@H](CC(C)C)C(=O)N[C@@H](CCC(=O)O)C(=O)NCC(=O)NCC(=O)N1CCC[C@H]1C(=O)N[C@@H](CO)C(=O)N[C@@H](CO)C(=O)NCC(=O)N[C@@H](C)C(=O)N1CCC[C@H]1C(=O)N1CCC[C@H]1C(=O)N1CCC[C@H]1C(=O)N[C@@H](CO)C(N)=O)C(C)C (some centres unmarked) | Gastric inhibitory polypeptide receptor (Mus musculus, UniProt Q0P543) | cAMP accumulation, agonist | HEK293 |  | reference: human GIPR over mouse GIPR | potency ratio | ~600 fold
